{"data": "Experimental data from different studies", "B1": "NEDD4L 492-581 (Homo sapiens, UniProt Q96PU5); chain HKVTQSFLPPGWEMRIAPNGRPFFIDHNTKTTTWEDPRLKFPVHMRSKTSLNPNDLGPLPPGWEERIHLDGRTFYIDHNSKITQWEDPRL", "B2": "RNase B unfolded, reduced (UniProt P61823); N-glycan, DyLight 680 label; sequence looked up; chain KETAAAKFERQHMDSSTSAASSSNYCNQMMKSRNLTKDRCKPVNTFVHESLADVQAVCSQKNVACKNGQTNCYQSYSTMSITDCRETGSSKYPNCAYKTTQANKHIIVACEGNPYVPVHFDASV", "B3": "TIM8/TIM13 hetero-hexamer K30F/S36L (Saccharomyces cerevisiae); chain 1 MSSLSTSDLASLDDTSKKEIATFLEGENSFQKVQMLIHQFTNICFKKCVESVNDSNLSSQEEQCLSNCVNRFLDTNIRIVNGLQNTR; chain 2 GGLSSIFGGGAPSQQKEAATTAKTTPNPIAKELKNQIAQELAVANATELVNKISENCFEKCLTSPYATRNDACIDQCLAKYMRSWNVISKAYISRIQNASASGEI", "B4": "rI 25-97 (T4 phage, UniProt P13304); Cys69-Cys75 disulfide; sequence looked up; chain NVDPHFDKFMESGIRHVYMLFENKSVESSEQFYSFMRTTYKNDPCSSDFECIERGAEMAQSYARIMNIKLETE", "B5": "Nup62 331-525 (Rattus norvegicus, UniProt P17955); chain MTYAQLESLINKWSLELEDQERHFLQQATQVNAWDRTLIENGEKITSLHREVEKVKLDQKRLDQELDFILSQQKELEDLLSPLEESVKEQSGTIYLQHADEEREKTYKLAENIDAQLKRMAQDLKDIIEHLNMAGGPADTSDPLQQICKILNAHMDSLQWVDQSSALLQRRVEEASRVCESRRKEQERSLRIAFD", "B6": "ACAT1 (Homo sapiens, UniProt P24752); sequence looked up; chain VSKPTLKEVVIVSATRTPIGSFLGSLSLLPATKLGSIAIQGAIEKAGIPKEEVKEAYMGNVLQGGEGQAPTRQAVLGAGLPISTPCTTINKVCASGMKAIMMASQSLMCGHQDVMVAGGMESMSNVPYVMNRGSTPYGGVKLEDLIVKDGLTDVYNKIHMGSCAENTAKKLNIARNEQDAYAINSYTRSKAAWEAGKFGNEVIPVTVTVKGQPDVVVKEDEEYKRVDFSKVPKLKTVFQKENGTVTAANASTLNDGAAALVLMTADAAKRLNVTPLARIVAFADAAVEPIDFPIAPVYAASMVLKDVGLKKEDIAMWEVNEAFSLVVLANIKMLEIDPQKVNINGGAVSLGHPIGMSGARIVGHLTHALKQGEYGLASICNGGGGASAMLIQKL", "B7": "Il22 34-179 E43H/S45R/Q49S/N68Q/N97Q/Q116W/Q128K (Mus musculus, UniProt Q9JJY9); sequence looked up; chain LPVNTRCKLHVRNFQSPYIVNRTFMLAKEASLADQNTDVRLIGEKLFRGVSAKDQCYLMKQVLQFTLEDVLLPQSDRFQPYMWEVVPFLTKLSNKLSSCHISGDDQNIQKNVRRLKETVKKLGESGEIKAIGELDLLFMSLRNACV", "B8": "recA 2-353 (Escherichia coli, UniProt P0A7G6); chain AIDENKQKALAAALGQIEKQFGKGSIMRLGEDRSMDVETISTGSLSLDIALGAGGLPMGRIVEIYGPESSGKTTLTLQVIAAAQREGKTCAFIDAEHALDPIYARKLGVDIDNLLCSQPDTGEQALEICDALARSGAVDVIVVDSVAALTPKAEIEGEIGDSHMGLAARMMSQAMRKLAGNLKQSNTLLIFINQIRMKIGVMFGNPETTTGGNALKFYASVRLDIRRIGAVKEGENVVGSETRVKVVKNKIAAPFKQAEFQILYGEGINFYGELVDLGVKEKLIEKAGAWYSYKGEKIGQGKANATAWLKDNPETAKEIEKKVRELLLSNPNSTPDFSVDDSEGVAETNEDF", "B9": "TIF4631 572-853 K590R (Saccharomyces cerevisiae, UniProt P39935); sequence looked up; chain LVPSANRWVPKFKSKKTERKLAPDGKTELLDKDEVERKMKSLLNKLTLEMFDAISSEILAIANISVWETNGETLKAVIEQIFLKACDEPHWSSMYAQLCGKVVKELNPDITDETNEGKTGPKLVLHYLVARCHAEFDKGWTDKLPTNEDGTPLEPEMMSEEYYAAASAKRRGLGLVRFIGFLYRLNLLTGKMMFECFRRLMKDLTDSPSEETLESVVELLNTVGEQFETDSFRTGQATLEGSQLLDSLFGILDNIIQTAKISSRIKFKLIDIKELRHDKNWN", "note": "Protocols differ between the studies behind these lines. Square brackets hold non-standard residues; d marks the D form. Ends that are not written are not given here.", "sequence of UniProt P29597 (whole entry, looked up)": "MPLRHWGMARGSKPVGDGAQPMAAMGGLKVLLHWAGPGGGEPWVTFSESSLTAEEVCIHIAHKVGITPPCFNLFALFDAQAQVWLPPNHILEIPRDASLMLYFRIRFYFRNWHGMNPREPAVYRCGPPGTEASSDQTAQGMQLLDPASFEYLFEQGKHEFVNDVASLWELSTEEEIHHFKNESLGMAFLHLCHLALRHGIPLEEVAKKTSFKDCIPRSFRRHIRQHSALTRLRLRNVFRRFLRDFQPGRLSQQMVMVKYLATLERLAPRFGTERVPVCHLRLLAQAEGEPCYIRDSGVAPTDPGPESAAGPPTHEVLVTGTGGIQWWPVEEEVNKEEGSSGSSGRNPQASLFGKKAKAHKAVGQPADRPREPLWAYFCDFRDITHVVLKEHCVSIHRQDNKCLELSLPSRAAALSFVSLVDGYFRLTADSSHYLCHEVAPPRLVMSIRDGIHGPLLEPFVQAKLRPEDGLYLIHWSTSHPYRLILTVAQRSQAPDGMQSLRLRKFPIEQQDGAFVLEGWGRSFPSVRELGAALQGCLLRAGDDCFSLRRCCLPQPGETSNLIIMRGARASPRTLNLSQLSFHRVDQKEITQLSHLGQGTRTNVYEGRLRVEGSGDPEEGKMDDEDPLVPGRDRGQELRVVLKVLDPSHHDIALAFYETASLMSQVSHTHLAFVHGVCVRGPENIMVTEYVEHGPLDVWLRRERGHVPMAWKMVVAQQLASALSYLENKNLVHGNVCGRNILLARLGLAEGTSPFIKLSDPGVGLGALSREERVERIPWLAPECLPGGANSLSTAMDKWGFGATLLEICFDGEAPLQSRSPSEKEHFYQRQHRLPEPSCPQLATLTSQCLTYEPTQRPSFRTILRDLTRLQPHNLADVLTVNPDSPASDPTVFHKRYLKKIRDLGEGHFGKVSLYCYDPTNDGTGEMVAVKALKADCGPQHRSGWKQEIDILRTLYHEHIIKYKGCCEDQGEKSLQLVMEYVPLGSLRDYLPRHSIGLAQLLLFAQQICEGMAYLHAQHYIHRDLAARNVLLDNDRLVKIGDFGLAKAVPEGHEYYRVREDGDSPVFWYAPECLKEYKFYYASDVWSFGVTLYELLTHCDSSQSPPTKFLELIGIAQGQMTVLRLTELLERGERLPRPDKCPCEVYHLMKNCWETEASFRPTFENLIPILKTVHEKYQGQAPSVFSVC", "sequence of UniProt P10081 (whole entry, unmodified, looked up)": "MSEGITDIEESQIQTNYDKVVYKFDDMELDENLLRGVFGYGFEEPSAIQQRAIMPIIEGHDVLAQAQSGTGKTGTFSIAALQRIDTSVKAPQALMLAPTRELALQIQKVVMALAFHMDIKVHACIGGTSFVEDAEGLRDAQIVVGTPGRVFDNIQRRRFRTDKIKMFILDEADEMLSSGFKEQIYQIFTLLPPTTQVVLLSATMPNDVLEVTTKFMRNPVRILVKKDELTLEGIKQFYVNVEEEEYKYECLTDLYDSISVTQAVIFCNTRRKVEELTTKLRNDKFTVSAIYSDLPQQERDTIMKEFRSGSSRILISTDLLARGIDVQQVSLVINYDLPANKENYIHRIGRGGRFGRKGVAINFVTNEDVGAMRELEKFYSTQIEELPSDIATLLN", "sequence of UniProt O60656 (whole entry, looked up)": "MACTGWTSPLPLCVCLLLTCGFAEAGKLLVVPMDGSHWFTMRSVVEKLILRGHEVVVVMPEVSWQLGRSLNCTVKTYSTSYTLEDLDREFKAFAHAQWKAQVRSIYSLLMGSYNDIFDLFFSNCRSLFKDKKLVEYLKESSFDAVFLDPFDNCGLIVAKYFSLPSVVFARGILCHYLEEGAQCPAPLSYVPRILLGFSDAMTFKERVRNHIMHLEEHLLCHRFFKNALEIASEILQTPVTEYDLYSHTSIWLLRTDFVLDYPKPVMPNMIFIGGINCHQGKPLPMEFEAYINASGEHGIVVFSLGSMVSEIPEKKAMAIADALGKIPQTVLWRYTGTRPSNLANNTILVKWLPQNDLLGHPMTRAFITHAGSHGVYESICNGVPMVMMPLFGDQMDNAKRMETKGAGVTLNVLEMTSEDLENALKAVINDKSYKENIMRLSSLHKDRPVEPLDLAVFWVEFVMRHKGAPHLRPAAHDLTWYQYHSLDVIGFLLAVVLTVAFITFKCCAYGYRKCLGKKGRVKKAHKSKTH", "sequence of UniProt Q80TS7 (whole entry, looked up)": "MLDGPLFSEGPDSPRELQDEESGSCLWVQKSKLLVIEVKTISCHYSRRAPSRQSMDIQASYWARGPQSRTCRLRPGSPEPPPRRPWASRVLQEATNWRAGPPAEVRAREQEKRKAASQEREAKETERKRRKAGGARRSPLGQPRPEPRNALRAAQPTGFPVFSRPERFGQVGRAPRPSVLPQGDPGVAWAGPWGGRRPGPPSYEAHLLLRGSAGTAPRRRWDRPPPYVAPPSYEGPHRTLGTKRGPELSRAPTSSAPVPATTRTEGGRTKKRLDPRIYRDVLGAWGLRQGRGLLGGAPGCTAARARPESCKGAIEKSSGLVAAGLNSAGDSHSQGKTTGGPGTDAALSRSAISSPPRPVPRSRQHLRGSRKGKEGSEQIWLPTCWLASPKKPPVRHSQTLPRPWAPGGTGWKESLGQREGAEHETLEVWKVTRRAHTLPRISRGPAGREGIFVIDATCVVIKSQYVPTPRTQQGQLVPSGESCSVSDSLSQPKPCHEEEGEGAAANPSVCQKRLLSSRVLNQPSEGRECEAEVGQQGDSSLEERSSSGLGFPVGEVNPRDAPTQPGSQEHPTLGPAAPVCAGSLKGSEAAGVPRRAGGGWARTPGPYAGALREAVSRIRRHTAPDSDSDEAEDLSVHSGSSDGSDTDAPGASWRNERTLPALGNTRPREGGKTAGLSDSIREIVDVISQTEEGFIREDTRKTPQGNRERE", "sequence of UniProt Q80XZ4 (whole entry, unmodified, looked up)": "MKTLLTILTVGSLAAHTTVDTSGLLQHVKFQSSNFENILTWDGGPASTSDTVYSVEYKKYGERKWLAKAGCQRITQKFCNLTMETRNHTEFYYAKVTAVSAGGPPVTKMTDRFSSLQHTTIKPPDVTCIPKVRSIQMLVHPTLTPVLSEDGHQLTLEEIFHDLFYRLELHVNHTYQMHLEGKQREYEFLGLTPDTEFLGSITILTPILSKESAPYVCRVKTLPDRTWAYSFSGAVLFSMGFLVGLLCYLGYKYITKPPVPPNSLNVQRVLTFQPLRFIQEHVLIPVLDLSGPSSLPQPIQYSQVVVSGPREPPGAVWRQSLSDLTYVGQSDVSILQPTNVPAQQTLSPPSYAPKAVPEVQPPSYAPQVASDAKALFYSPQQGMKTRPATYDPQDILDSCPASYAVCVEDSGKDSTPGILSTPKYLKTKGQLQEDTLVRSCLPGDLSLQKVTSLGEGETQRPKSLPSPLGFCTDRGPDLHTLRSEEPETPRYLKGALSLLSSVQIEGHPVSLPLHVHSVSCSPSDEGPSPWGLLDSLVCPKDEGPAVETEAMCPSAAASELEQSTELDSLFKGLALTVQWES", "sequence of UniProt P48735 (whole entry, unmodified, looked up)": "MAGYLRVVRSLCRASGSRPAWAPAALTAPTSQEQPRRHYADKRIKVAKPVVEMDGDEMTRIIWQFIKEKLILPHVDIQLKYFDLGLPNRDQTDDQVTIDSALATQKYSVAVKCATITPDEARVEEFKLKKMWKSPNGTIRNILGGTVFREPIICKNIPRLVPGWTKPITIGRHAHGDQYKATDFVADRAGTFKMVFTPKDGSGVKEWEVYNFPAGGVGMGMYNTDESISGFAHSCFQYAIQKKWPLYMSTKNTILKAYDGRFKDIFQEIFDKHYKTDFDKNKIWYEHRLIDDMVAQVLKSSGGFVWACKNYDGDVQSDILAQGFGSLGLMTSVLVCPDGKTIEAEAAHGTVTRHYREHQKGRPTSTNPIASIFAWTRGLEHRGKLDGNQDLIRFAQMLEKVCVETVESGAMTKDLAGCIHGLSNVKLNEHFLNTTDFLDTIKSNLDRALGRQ", "sequence of UniProt P06612 (whole entry, looked up)": "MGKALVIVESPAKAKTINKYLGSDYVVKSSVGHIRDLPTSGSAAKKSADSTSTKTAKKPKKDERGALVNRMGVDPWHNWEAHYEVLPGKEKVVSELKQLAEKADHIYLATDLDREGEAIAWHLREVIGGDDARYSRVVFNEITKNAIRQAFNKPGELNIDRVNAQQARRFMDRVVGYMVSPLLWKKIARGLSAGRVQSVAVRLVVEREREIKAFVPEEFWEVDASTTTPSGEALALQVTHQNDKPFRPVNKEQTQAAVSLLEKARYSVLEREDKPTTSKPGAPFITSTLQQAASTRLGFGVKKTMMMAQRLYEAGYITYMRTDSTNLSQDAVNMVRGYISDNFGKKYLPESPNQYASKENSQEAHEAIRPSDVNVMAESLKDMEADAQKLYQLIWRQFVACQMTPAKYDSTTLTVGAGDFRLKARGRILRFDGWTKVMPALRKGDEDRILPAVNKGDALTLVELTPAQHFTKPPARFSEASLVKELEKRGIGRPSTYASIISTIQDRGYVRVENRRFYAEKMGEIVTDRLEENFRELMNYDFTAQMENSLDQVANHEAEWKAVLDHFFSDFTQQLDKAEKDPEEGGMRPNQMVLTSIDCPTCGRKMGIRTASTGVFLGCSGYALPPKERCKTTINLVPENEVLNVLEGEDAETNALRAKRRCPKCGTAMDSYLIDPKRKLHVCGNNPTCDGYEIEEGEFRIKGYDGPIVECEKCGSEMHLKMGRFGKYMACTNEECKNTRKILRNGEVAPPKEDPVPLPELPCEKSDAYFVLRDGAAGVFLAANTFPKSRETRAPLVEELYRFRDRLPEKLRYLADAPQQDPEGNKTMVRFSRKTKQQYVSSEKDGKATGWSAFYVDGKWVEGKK"}
{"Substance": "B1 (NEDD4L 492-581)", "tested on": "SCN9A/CALM1 SCN9A ; CALM1 (Homo sapiens)", "assay": "SEC", "quantity": "binding", "value": "binds"}
{"Substance": "B2 (RNase B unfolded, reduced)", "tested on": "MNL1/PDI1 C579S/C644S (Saccharomyces cerevisiae)", "assay": "pull-down", "setting": "30 min, 30 °C", "quantity": "binding", "value": "binds"}
{"Substance": "Ac-YQSAIKVEPA[pS]PPYYSEKTQL (PPARG residues 102-122 (Homo sapiens); N-acetyl, pS112; pS = N[C@@H](COP(=O)(O)O)C(=O)O)", "tested on": "PIN1 (Homo sapiens, UniProt Q13526)", "assay": "NMR", "system": "peptide", "quantity": "binding", "value": "binds"}
{"Substance": "B3", "tested on": "TIM23 C98S/C209S/C213A (Saccharomyces cerevisiae, UniProt P32897)", "assay": "pull-down", "quantity": "binding", "value": "binds"}
{"Substance": "UGT1A9 (Homo sapiens, UniProt O60656)", "tested on": "CCOc1ccc(O)cc1", "assay": "steady-state kinetics", "setting": "pH 7.4, 37 °C", "quantity": "Vmax/Km", "value": "8.3 µL/min/mg"}
{"Substance": "B4 (rI 25-97)", "tested on": "holin T periplasmic domain 56-218, Cys175-Cys207 disulfide (UniProt P06808)", "assay": "crystal structure", "quantity": "binding", "value": "binds"}
{"Substance": "B5 (Nup62 331-525)", "tested on": "Nup54 (Rattus norvegicus, UniProt P70582)", "assay": "far-Western blot", "system": "partially purified complex", "quantity": "binding", "value": "binds"}
{"Substance": "pdp1 (Schizosaccharomyces pombe, UniProt O59676)", "tested on": "histone H4 (Homo sapiens, UniProt P62805)", "assay": "pull-down", "quantity": "binding", "value": "binds"}
{"Substance": "B6 (ACAT1)", "tested on": "IDH2 R140Q/K413R, tyrosine phosphorylated (Homo sapiens, UniProt P48735)", "assay": "co-IP", "quantity": "binding", "value": "binds"}
{"Substance": "B7", "tested on": "Il22ra1 16-228 N80D/N87D/T89Q (Mus musculus, UniProt Q80XZ4)", "assay": "crystal structure", "quantity": "binding", "value": "binds"}
{"Substance": "B8 (recA 2-353)", "tested on": "topA 1-597 (Escherichia coli, UniProt P06612)", "assay": "pull-down", "setting": "added: ATP 5 mM", "quantity": "binding", "value": "binds"}
{"Substance": "IDEYFSEQPLKNLLLSTSEEQIEKCFIIENISTIA (IFNAR1 478-512 (Homo sapiens, UniProt P17181); sequence looked up)", "tested on": "TYK2 23-583 (Homo sapiens, UniProt P29597)", "assay": "crystal structure", "system": "peptide", "quantity": "binding", "value": "binds"}
{"Substance": "MPIFLDHIANKFWILHYAGSGSSG (SPAM peptide L9A; peptide-RNA fusion)", "tested on": "CD274 ectodomain (Homo sapiens)", "assay": "radioligand binding", "system": "peptide", "setting": "1 h, 4 °C", "quantity": "binding", "value": "binds"}
{"Substance": "B9 (TIF4631 572-853 K590R)", "tested on": "TIF1 E43R/Q186C/G370C, Alexa488/Alexa546 labels (Saccharomyces cerevisiae, UniProt P10081)", "assay": "conformation of molecule, smFRET", "quantity": "binding", "value": "binds"}
{"Substance": "MPAFLDHILNKFWILHYAGSGSSG (SPAM peptide I3A; peptide-RNA fusion)", "tested on": "CD274 ectodomain (Homo sapiens)", "assay": "radioligand binding", "system": "peptide", "setting": "1 h, 4 °C", "quantity": "binding", "value": "binds"}
{"Substance": "PPPYVAPPSYEG (Ddn 224-235 (Mus musculus, UniProt Q80TS7); sequence looked up)", "tested on": "Sav1 198-271 (Mus musculus, UniProt Q8VEB2)", "assay": "crystal structure", "system": "peptide", "quantity": "binding", "value": "binds"}
{"note": "For quick reference, copied from above:"}
{"Substance": "MPIFLDHIANKFWILHYAGSGSSG (SPAM peptide L9A; peptide-RNA fusion)", "tested on": "CD274 ectodomain (Homo sapiens)", "assay": "radioligand binding", "system": "peptide", "setting": "1 h, 4 °C", "quantity": "binding", "value": "binds"}
{"Substance": "B9 (TIF4631 572-853 K590R)", "tested on": "TIF1 E43R/Q186C/G370C, Alexa488/Alexa546 labels (Saccharomyces cerevisiae, UniProt P10081)", "assay": "conformation of molecule, smFRET", "quantity": "binding", "value": "binds"}
